Measured values collected from several papers.
Lines come from different studies, so protocols differ. Numbers after ± are the reported error.
TST: Thiosulfate sulfurtransferase (TST, Bos taurus, UniProt P00586)
Chain of UniProt P00586 (whole entry, looked up): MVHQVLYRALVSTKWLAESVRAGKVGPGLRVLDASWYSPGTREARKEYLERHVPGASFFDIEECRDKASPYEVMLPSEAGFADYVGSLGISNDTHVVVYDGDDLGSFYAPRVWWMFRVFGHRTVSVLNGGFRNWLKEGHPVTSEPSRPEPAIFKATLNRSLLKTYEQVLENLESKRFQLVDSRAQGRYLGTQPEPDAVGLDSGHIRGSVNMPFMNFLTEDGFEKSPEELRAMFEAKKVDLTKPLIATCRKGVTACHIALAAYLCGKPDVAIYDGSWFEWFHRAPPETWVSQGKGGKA
fabG: 3-oxoacyl-[acyl-carrier-protein] reductase FabG (fabG, Pseudomonas aeruginosa, UniProt O54438)
Chain of UniProt O54438 (whole entry, looked up): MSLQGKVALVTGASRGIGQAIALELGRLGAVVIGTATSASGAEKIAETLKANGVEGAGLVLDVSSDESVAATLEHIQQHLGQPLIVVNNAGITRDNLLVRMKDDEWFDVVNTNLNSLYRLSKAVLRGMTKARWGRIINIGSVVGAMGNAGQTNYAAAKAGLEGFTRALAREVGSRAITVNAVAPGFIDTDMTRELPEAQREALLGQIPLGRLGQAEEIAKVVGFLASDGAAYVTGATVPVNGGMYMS
MAOA: Amine oxidase [flavin-containing] A (MAOA, Homo sapiens, UniProt P21397)
Chain of UniProt P21397 (whole entry, looked up): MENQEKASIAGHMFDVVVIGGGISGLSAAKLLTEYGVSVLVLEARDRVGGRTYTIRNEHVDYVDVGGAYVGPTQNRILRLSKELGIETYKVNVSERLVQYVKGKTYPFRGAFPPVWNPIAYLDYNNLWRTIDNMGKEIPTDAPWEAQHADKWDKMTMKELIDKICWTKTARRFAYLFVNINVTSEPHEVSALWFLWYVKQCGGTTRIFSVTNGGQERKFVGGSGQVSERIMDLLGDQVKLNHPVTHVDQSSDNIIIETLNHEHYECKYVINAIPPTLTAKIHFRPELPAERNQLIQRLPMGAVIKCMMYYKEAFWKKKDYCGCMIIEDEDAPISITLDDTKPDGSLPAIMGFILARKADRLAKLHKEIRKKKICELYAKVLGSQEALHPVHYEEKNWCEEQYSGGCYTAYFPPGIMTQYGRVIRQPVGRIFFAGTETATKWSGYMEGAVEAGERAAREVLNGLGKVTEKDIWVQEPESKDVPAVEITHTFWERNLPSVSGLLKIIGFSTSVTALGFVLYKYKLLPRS
Chain of UniProt Q03111 (whole entry, looked up): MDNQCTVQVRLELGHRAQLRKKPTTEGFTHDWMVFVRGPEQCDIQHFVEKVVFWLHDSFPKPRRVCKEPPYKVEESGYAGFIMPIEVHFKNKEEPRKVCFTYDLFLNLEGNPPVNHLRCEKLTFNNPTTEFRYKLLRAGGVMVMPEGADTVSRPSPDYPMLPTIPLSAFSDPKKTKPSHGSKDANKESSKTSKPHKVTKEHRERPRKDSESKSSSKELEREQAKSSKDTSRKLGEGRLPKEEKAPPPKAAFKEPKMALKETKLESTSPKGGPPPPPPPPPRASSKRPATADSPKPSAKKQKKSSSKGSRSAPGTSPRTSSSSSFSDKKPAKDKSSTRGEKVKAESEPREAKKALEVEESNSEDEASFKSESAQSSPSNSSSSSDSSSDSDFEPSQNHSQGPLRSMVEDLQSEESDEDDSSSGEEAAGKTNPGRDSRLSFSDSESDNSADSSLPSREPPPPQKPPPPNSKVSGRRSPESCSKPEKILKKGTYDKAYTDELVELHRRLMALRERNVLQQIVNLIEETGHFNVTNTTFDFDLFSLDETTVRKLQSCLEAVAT
Chain of UniProt Q96D96 (whole entry, looked up): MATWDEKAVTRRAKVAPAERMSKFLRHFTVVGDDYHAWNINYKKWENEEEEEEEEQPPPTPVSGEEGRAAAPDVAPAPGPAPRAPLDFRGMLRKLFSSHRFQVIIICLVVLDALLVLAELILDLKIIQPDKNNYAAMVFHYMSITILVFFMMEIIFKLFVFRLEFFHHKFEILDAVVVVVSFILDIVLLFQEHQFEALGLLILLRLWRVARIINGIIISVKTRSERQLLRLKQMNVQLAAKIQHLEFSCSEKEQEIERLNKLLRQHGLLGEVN
Chain of UniProt Q15418 (whole entry, looked up): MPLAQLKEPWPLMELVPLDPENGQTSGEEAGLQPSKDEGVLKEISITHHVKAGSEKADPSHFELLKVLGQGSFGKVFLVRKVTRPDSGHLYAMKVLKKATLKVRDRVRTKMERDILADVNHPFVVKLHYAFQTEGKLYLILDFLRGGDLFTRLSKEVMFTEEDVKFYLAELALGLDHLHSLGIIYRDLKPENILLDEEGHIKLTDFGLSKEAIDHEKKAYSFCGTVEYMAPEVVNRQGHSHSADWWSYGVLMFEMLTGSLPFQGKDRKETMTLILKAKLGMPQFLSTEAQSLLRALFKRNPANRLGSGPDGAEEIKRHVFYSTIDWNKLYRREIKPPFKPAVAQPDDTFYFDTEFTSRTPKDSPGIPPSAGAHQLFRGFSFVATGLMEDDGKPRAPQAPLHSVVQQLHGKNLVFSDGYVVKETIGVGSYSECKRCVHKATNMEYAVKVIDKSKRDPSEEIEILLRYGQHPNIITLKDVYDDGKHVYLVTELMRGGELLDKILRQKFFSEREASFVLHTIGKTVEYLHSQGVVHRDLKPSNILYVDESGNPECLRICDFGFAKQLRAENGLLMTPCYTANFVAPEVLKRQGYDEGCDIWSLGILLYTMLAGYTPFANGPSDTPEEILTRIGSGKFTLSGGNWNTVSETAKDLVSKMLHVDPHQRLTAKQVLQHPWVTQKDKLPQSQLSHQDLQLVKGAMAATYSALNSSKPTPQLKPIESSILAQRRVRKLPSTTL
Chain of UniProt P35367 (whole entry, looked up): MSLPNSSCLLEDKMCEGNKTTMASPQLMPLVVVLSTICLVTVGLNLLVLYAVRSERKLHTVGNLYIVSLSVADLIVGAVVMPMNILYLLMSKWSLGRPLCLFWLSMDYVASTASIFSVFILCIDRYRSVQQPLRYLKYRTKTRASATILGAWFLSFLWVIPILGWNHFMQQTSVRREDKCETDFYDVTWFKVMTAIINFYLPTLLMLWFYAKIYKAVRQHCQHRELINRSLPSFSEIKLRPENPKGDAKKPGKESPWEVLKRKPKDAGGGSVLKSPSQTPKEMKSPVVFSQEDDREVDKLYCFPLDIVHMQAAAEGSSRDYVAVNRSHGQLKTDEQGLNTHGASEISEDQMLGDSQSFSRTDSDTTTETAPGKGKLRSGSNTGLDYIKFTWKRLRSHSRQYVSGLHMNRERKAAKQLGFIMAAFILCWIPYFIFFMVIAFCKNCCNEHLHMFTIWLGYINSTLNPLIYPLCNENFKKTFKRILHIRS
Chain of UniProt Q9UEE5 (whole entry, looked up): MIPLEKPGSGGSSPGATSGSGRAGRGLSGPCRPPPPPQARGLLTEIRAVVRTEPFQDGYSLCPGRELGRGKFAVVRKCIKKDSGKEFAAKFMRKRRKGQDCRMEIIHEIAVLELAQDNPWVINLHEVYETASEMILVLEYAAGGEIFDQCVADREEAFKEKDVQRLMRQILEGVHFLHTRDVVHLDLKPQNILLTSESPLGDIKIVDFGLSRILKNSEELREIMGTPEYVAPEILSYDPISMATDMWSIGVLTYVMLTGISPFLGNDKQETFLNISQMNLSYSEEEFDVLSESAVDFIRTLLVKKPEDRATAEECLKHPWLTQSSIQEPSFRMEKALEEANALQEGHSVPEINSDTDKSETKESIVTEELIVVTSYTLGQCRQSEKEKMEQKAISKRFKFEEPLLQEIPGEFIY
Chain of UniProt Q9UKE5 (whole entry, looked up): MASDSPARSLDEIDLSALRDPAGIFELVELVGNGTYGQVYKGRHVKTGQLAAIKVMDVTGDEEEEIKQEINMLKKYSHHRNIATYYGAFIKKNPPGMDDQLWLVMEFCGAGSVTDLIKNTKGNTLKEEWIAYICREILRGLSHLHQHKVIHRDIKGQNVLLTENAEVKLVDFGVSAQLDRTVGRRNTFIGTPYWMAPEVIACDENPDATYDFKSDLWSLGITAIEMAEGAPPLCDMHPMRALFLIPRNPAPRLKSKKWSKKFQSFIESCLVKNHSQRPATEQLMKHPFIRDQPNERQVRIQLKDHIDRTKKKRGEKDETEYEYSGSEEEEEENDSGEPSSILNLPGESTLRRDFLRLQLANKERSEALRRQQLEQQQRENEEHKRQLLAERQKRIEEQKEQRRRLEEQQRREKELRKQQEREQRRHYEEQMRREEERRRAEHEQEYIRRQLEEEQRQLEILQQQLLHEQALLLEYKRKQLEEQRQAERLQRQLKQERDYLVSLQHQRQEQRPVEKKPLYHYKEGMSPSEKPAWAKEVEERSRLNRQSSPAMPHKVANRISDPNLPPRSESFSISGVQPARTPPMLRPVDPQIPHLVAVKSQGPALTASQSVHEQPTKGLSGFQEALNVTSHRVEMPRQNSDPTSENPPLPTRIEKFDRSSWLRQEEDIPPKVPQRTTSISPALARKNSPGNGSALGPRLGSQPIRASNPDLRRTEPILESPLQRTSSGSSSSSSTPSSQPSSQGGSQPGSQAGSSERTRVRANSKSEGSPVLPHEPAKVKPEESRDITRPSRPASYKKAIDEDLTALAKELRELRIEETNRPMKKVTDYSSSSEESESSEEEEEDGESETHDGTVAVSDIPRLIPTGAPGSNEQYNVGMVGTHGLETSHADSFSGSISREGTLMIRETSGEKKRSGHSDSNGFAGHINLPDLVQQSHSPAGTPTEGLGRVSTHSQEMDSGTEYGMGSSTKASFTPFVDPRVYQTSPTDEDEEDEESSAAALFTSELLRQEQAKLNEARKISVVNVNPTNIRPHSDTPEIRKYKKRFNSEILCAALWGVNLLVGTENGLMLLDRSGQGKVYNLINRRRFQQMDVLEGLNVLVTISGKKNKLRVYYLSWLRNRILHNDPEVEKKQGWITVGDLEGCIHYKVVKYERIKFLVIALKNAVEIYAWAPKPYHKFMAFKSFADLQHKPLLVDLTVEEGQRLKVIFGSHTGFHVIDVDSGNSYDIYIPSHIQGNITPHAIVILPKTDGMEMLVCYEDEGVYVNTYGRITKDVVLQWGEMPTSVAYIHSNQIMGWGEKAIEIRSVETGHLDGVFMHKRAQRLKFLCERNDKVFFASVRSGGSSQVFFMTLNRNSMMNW

COc1c(Br)cccc1C(=O)Nc1ccc(Sc2nc3ccccc3s2)c(Cl)c1 has an IC50 of greater than 100 µM (TST; enzyme activity, inhibitor; native rhodanese counter-screen).
Cc1ccc2c(NS(=O)(=O)c3ccccc3Cl)cccc2c1Oc1ncccc1-c1ccnc(N[C@H]2CCCNC2)n1 gave an IC50 of 2.33 µM (ERN1 (Homo sapiens, UniProt O75460); RNase activity, inhibitor, FRET suppression; 90 min preincubation, added: XBP1 RNA substrate).
With Cn1ncc2c(NCCO)nc(Nc3ccc(F)c(F)c3)nc21 the IC50 was 4 µM (fabG; enzyme activity, inhibitor, NADPH fluorescence; reverse reaction, geometric mean, added: 3-OH-decanoyl-NAC, NADP).
CCCCCCCCC gave an IC50 of greater than 50 µM (uncharacterized protein (Bradysia odoriphaga, UniProt A0A2S0X9G4); binding, competitive fluorescence displacement; pH 7.4).
O=S(=O)(Nc1ccc(-c2nc3cc(NS(=O)(=O)c4ccccc4)ccc3o2)cc1)c1ccccc1 has an IC50 of greater than 100 µM (TST; enzyme activity, inhibitor; native rhodanese counter-screen).
For O=C(O)c1ccc(NS(=O)(=O)c2ccc(Cl)c(Cl)c2)cc1F, the IC50 was greater than 100 µM (Estradiol 17-beta-dehydrogenase 11 (Homo sapiens, UniProt Q8NBQ5); enzyme activity, inhibitor; added: 20-HETE ethanolamide substrate).
For COc1ccc(NC(=O)c2ccc3c(c2)C(=O)NC3=O)cc1Cl, the IC50 was greater than 40 µM (MAOA).
With COc1cc(/C=C/C(O)=C/C(=O)/C=C/c2ccc(O)cc2)ccc1O the IC50 was 6.1 µM (ATP2A1 (Oryctolagus cuniculus, UniProt P04191); ATPase activity, inhibitor; rabbit hind leg microsomes; pH 7.3, added: 0.22 mM ATP).
O=C(/C=C/c1ccc(Cl)cc1)N1CCC2(CC1)CN(Cc1ccc(Cl)c(Cl)c1)C(=O)O2 has an IC50 of roughly 0.35 µM (GPR183 (Homo sapiens, UniProt P32249); GTP turnover; added: 7alpha,25-OHC).
O=C(Nc1ccc(Cl)c(F)c1)c1ccc2c(c1)C(=O)NC2=O gave an IC50 of greater than 40 µM (MAOA).
The IC50 of C#CCSc1nc(Sc2nnnn2-c2ccccc2)c2nnn(Cc3ccc(OC)cc3)c2n1 is reported as 0.136 µM (KDM1A (Homo sapiens, UniProt O60341); inhibitor).
With CC(C)C[C@H](NC(=O)[C@H](Cc1cccc2ccccc12)NC(=O)OCc1ccccc1)C(=O)N[C@H](CS)C[C@@H]1CCNC1=O the IC50 was greater than 10 µM (Genome polyprotein, 3C-like protease (ORF1, Hu/NV/NV/1968/US, UniProt Q83883); protease activity, inhibitor, FRET; GI.1; 37 °C).
C[C@H]1[C@H](F)C[C@@H](C(=O)NCc2cc(-c3cnc(C(F)(F)F)nc3)ncc2C(F)(F)F)N1S(=O)(=O)c1ccc(F)cc1 gave an IC50 of 10.7 µM (TRPM8 (Homo sapiens, UniProt Q7Z2W7); calcium response, antagonist; human cells; added: menthol 50 µM).
CCC(CC)COC(=O)[C@H](C)N[P@](=O)(OC[C@H]1O[C@@](C#N)(c2ccc3c(N)ncnn23)[C@H](O)[C@@H]1O)Oc1ccccc1 has an IC50 of 0.121 µM (Cocaine esterase (CES2, Homo sapiens, UniProt O00748); enzyme activity, inhibitor; added: fluorescein diacetate).
CC(=O)OCC(C)C has an IC50 of greater than 50 µM (uncharacterized protein (Drosophila suzukii, UniProt A0AB39ZGK5); binding, bis-ANS competition fluorescence; pH 7.4, added: bis-ANS).
With CN1C(=O)[C@@H](Cc2ccc(O)cc2)NC(=O)CNC(=O)[C@H](Cc2ccc3ccccc3c2)NC(=O)[C@H](CCCNC(=N)N)NC(=O)[C@H]1CCCNC(=O)c1ccc(CNC(=O)CN2CCN(CC(=O)O)CCN(CC(=O)O)CCN(CC(=O)O)CC2)cc1 the IC50 was 0.0441 ± 0.0042 µM (CXCR4 (Homo sapiens, UniProt P61073)).
C=C(C)[C@H]1CC=C(C)CC1 gave an IC50 of greater than 50 µM (uncharacterized protein (Bradysia odoriphaga, UniProt A0A2S0X9G4); binding, competitive fluorescence displacement; pH 7.4).
c1cc(N2CCCC2)ccc1-c1cc2ncc(OCC3CCNCC3)nc2cc1-c1ccc(N2CCCC2)cc1 has an IC50 of 0.35 ± 0.007 µM (Protein ENL, with AF4 (MLLT1, Homo sapiens, UniProt Q03111); AlphaScreen).
With CC(=O)Nc1ccc(C(=O)Nc2ccccc2N)cc1 the IC50 was greater than 150 µM (Lysine-specific histone demethylase 1A, with CoREST (KDM1A, Homo sapiens, UniProt O60341); demethylase activity, inhibitor; LSD1-CoREST complex).
COc1ccc(OC)c(NC(=O)N2CCOc3ccc(C)cc32)c1 gave an IC50 of 10 µM (fabG; enzyme activity, inhibitor, NADPH fluorescence; reverse reaction, geometric mean, added: 3-OH-decanoyl-NAC, NADP).
For CCCCCCCCCCCCCCCC(=O)OC[C@H](O)[C@H]1OC(=O)C(O)=C1O, the IC50 was 32.5 µM (Thyroxine 5-deiodinase (DIO3, Homo sapiens, UniProt P55073)).
The IC50 of Nc1ccc(S(=O)(=O)Nc2ccc(-c3nc4cc(NS(=O)(=O)c5ccc(N)cc5)ccc4o3)cc2)cc1 is reported as greater than 100 µM (TST; enzyme activity, inhibitor; native rhodanese counter-screen).
COc1ccc(NC(=O)c2ccc3c(c2)C(=O)NC3=O)cc1OC gave an IC50 of greater than 40 µM (MAOA).
N#Cc1c(N)nc(-c2ccccc2)nc1C(F)(F)F gave an IC50 of 0.04 µM (fabG).
For O=C(NCc1ccccc1)c1ccc2c(c1)C(=O)NC2=O, the IC50 was greater than 40 µM (MAOA).
With CCCCCCCCCCCCCCCCCCCCCCC the IC50 was greater than 50 µM (uncharacterized protein (Drosophila suzukii, UniProt A0AB39ZCT4); binding, bis-ANS competition fluorescence; pH 7.4, added: bis-ANS).
Cc1cnc(-c2ccc(-c3ccc(NC(=O)Nc4c(F)cc(F)cc4F)cc3F)c3c2C(=O)NC3)[nH]1 gave an IC50 of 0.0995 µM (TNIK (Homo sapiens, UniProt Q9UKE5); enzyme activity, inhibitor, mobility shift; added: ATP 1 mM).
CCCCCCCCCCCCCCCC(=O)OC has an IC50 of greater than 50 µM (uncharacterized protein (Drosophila suzukii, UniProt A0AB39ZGK5); binding, bis-ANS competition fluorescence; pH 7.4, added: bis-ANS).
For Cc1cc(C)n2nc(C)c(-c3ccc(F)cc3)c2n1, the IC50 was 9.3 µM (fabG; enzyme activity, inhibitor, NADPH fluorescence; reverse reaction, geometric mean, added: 3-OH-decanoyl-NAC, NADP).
The IC50 of CCn1c(-c2nc3cc(C(=O)N4CCC[C@@H](N)C4)cc(OC)c3n2C)cc2cccnc21 is reported as greater than 39.8 µM (HRH1 (Homo sapiens, UniProt P35367); antagonist, intracellular Ca2+ luminescence).
With COC(=O)[C@H](c1ccccc1Cl)N1CCc2sccc2C1 the IC50 was 0.4 ± 0.03 µM (Cytochrome P450 2B4 (Oryctolagus cuniculus, UniProt P00178, F297A/H226Y/P221S); mutant enzyme; added: 50 µM substrate).
With NC(=O)c1sc(-c2ccccc2)cc1NC(=O)c1cccs1 the IC50 was 0.04 µM (fabG).
CCCCCCCCCCCCCC(=O)OC has an IC50 of greater than 50 µM (uncharacterized protein (Drosophila suzukii, UniProt A0AB39ZGK5); binding, bis-ANS competition fluorescence; pH 7.4, added: bis-ANS).
CC[C@@H]1[C@H](F)C(=O)N[C@@H]1COc1nccc2cc(C(N)=O)c(OC)cc12 has an IC50 of greater than 5 µM (RPS6KA1 (Homo sapiens, UniProt Q15418); ATP-site binding, ActivX kinase profiling; THP-1 cell lysate; RSK1 domain 1 activation-loop probe peptide).
With O=C(Nc1ccc(F)c(Cl)c1)c1ccc2c(c1)C(=O)NC2=O the IC50 was greater than 40 µM (MAOA).
With CC/C=C\C/C=C\C/C=C\C/C=C\C/C=C\CCCC(=O)O the IC50 was greater than 100 µM (DNA polymerase alpha catalytic subunit, with primase subunits (Bos taurus, UniProt A0A3Q1MF00); enzyme activity, inhibitor).
With COc1ccccc1S(=O)(=O)Nc1ccc(-c2nc3cc(NS(=O)(=O)c4ccccc4OC)ccc3o2)cc1 the IC50 was greater than 100 µM (TST; enzyme activity, inhibitor; native rhodanese counter-screen).
For C=C1CC/C=C(/C)CC[C@@H]2[C@@H]1CC2(C)C, the IC50 was greater than 50 µM (uncharacterized protein (Bradysia odoriphaga, UniProt A0A2S0X9G4); binding, competitive fluorescence displacement; pH 7.4).
O=C(O)C1=CC(=C(c2ccc(O)c(C(=O)O)c2)c2ccc(O)c(C(=O)O)c2)C=CC1=O has an IC50 of 0.592 ± 0.088 µM (P2X purinoceptor 3 (P2RX3, Homo sapiens, UniProt P56373); ion current, antagonist, patch clamp; HEK293; added: ATP4- 1 µM).
With COc1ccc(S(=O)(=O)Nc2ccc3oc(-c4ccc(NC(=O)c5cccc(C)c5[N+](=O)[O-])cc4)nc3c2)cc1 the IC50 was greater than 100 µM (TST; enzyme activity, inhibitor; native rhodanese counter-screen).
The IC50 of C=C1CCC2CC1C2(C)C (stereo not drawn) is reported as greater than 50 µM (uncharacterized protein (Bradysia odoriphaga, UniProt A0A2S0X9G4); binding, competitive fluorescence displacement; pH 7.4).
O=Cc1cc2ccccc2cc1C=O gave an IC50 of 20 µM (CD209 antigen (CD209, Homo sapiens, UniProt Q9NNX6); binding, HRP plate assay, immobilized target; overnight, room temperature).
CN1CCN(c2ccc(Nc3ncc4cc(C#N)c(=O)n(C5CCCC5)c4n3)cc2)CC1 has an IC50 of greater than 10 µM (STK17A (Homo sapiens, UniProt Q9UEE5)).
The IC50 of COc1cccc(NC(=O)c2ccc3c(c2)C(=O)NC3=O)c1 is reported as greater than 40 µM (MAOA).
O=C1C[C@@H](c2ccc(O)cc2)Oc2cc(O)cc(O)c21 has an IC50 of 41.5 µM (uncharacterized protein (Drosophila suzukii, UniProt A0AB39ZGK5); binding, bis-ANS competition fluorescence; pH 7.4, added: bis-ANS).
The IC50 of CCCCCCCCCC=O is reported as greater than 50 µM (uncharacterized protein (Bradysia odoriphaga, UniProt A0A2S0X9G4); binding, competitive fluorescence displacement; pH 7.4).
For C=CC(C)(CCC=C(C)C)OC(C)=O (stereo not drawn), the IC50 was greater than 50 µM (uncharacterized protein (Drosophila suzukii, UniProt A0AB39ZGK5); binding, bis-ANS competition fluorescence; pH 7.4, added: bis-ANS).
CCCCC(C)=O gave an IC50 of greater than 50 µM (uncharacterized protein (Bradysia odoriphaga, UniProt A0A2S0X9G4); binding, competitive fluorescence displacement; pH 7.4).
With OC[C@H]1O[C@H](O[C@H]2O[C@H](CO)[C@@H](O)[C@H](O)[C@H]2O)[C@H](O)[C@@H](O)[C@@H]1O the IC50 was greater than 50 µM (uncharacterized protein (Drosophila suzukii, UniProt A0AB39ZCT4); binding, bis-ANS competition fluorescence; pH 7.4, added: bis-ANS).
With CC(C)(/C=C(\C#N)C(=O)N1CCC[C@@H](n2nc(-c3ccc(Oc4ccccc4)cc3F)c3c(N)ncnc32)C1)N1CCN(C2COC2)CC1 the IC50 was less than 0.000254 µM (BMX (Homo sapiens, UniProt P51813)).
Cc1[nH]c(N)nc1/C=C/C(=O)c1cc(F)cc(F)c1 gave an IC50 of 13.3 ± 1.3 µM (HVCN1 (Homo sapiens, UniProt Q96D96); proton current, inhibitor, inside-out patch clamp; Xenopus laevis oocytes; pH 6.0).
CCCCCCCC(=O)OCC has an IC50 of greater than 50 µM (uncharacterized protein (Drosophila suzukii, UniProt A0AB39ZCT4); binding, bis-ANS competition fluorescence; pH 7.4, added: bis-ANS).
COc1ccc(S(=O)(=O)Nc2ccc(-c3nc4cc(NS(=O)(=O)c5ccc(OC)cc5)ccc4o3)cc2)cc1 has an IC50 of greater than 100 µM (TST; enzyme activity, inhibitor; native rhodanese counter-screen).
For c1cc(N2CCCCC2)ccc1Nc1cc2ncc(OCC3CCNCC3)nc2cc1-c1ccc(N2CCCCC2)cc1, the IC50 was 1.1 ± 0.13 µM (Protein ENL, with DOT1L (MLLT1, Homo sapiens, UniProt Q03111); AlphaScreen).

Repeated from above:
O=C1C[C@@H](c2ccc(O)cc2)Oc2cc(O)cc(O)c21 has an IC50 of 41.5 µM (uncharacterized protein (Drosophila suzukii, UniProt A0AB39ZGK5); binding, bis-ANS competition fluorescence; pH 7.4, added: bis-ANS).
The IC50 of CCCCCCCCCC=O is reported as greater than 50 µM (uncharacterized protein (Bradysia odoriphaga, UniProt A0A2S0X9G4); binding, competitive fluorescence displacement; pH 7.4).
For C=CC(C)(CCC=C(C)C)OC(C)=O (stereo not drawn), the IC50 was greater than 50 µM (uncharacterized protein (Drosophila suzukii, UniProt A0AB39ZGK5); binding, bis-ANS competition fluorescence; pH 7.4, added: bis-ANS).
CCCCC(C)=O gave an IC50 of greater than 50 µM (uncharacterized protein (Bradysia odoriphaga, UniProt A0A2S0X9G4); binding, competitive fluorescence displacement; pH 7.4).
With OC[C@H]1O[C@H](O[C@H]2O[C@H](CO)[C@@H](O)[C@H](O)[C@H]2O)[C@H](O)[C@@H](O)[C@@H]1O the IC50 was greater than 50 µM (uncharacterized protein (Drosophila suzukii, UniProt A0AB39ZCT4); binding, bis-ANS competition fluorescence; pH 7.4, added: bis-ANS).
With CC(C)(/C=C(\C#N)C(=O)N1CCC[C@@H](n2nc(-c3ccc(Oc4ccccc4)cc3F)c3c(N)ncnc32)C1)N1CCN(C2COC2)CC1 the IC50 was less than 0.000254 µM (BMX (Homo sapiens, UniProt P51813)).
